Experimental data from different studies.
A part holds a random share of what one study measured. Substitutions count along the parent as printed.

Study 1
Target: PABPC1L2, full length, GST fusion (mouse, UniProt A0ABA7IW68)
Method: RNAcompete
Form: RNA
Matrix: in vitro
Concentration: 20 nM
Notes: 7-mer, probes averaged, single round
Reference: mean of 7-mers
Reading: higher = stronger binding
Construct (chain): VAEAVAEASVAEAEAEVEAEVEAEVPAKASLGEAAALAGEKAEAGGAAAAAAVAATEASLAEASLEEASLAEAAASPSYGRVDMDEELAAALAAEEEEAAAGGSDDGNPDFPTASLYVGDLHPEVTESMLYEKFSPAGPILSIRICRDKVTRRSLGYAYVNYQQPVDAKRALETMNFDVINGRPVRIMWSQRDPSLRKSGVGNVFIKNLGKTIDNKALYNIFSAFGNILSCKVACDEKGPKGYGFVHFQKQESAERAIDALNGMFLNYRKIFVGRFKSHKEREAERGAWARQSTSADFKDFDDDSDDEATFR
The 7-mer Z-score of `AGGGGGU` is reported as 0.421.
For `UGGGGCG`, the 7-mer Z-score was 0.369.
For `CCUAGUA`, the 7-mer Z-score was -0.226.
`UCCGGUU` has a 7-mer Z-score of -0.295.
`CAUGUAA` has a 7-mer Z-score of 0.258.
With `UGAACGG` the 7-mer Z-score was -0.182.
`UUAUGCC` has a 7-mer Z-score of -0.282.
`GUAUUUG` has a 7-mer Z-score of -0.34.

Study 2
Target: Histone acetyltransferase KAT6A, winged helix 2, GST fusion (KAT6A, Homo sapiens, UniProt Q92794, residues 85-181)
Method: protein binding microarray
Form: double-stranded DNA, one strand shown
Matrix: in vitro
Concentration: not given
Notes: 8-mer, flanks averaged, mean of 2 arrays, mostly near background
Reference: not given
Reading: higher = stronger binding
Construct (chain): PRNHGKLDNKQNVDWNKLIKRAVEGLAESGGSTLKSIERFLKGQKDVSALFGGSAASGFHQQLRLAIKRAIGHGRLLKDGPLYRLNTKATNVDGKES
With `GCGCAACA` the E-score was 0.132.
With `CGCCCTTA` the E-score was 0.0437.
`AAATGCGT` gave an E-score of 0.0641.
For `GATGGACC`, the E-score was -0.0566.
`CCGAGTCA` has an E-score of 0.076.
`ATGGCGCA` gave an E-score of 0.0333.
The E-score of `TATGCACA` is reported as -0.0518.
`AATATCTA` gave an E-score of -0.126.

Study 3
Target: RNA binding protein fox-1 homolog 2, RRM domain, GST-SBP tag (RBFOX2, Homo sapiens, UniProt O43251-10, residues 100-194)
Method: RNA Bind-n-Seq
Form: RNA
Matrix: in vitro
Concentration: 365 nM
Notes: natural RNA segment, single round, ends assumed
Reference: no-protein control
Reading: higher = stronger binding
Construct (chain): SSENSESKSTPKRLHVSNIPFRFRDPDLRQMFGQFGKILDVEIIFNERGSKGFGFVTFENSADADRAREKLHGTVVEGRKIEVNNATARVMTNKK
`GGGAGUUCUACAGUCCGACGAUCCCAAGAUCUCAAACUAGGGCUUCCGUCUGUGAUGAGGACGCCUCUGAAGAAAUCUCAAGCUCCCAAUUUUGGUUGCACUUUACGAACAUGCUCACUUCGUUAGCAUUUCUUGGAAUUCUCGGGUGCCAA` — result for “RBNS enrichment (R)”: 0.552.
For `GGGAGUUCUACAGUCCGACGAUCUUCACCUACUCCACCUCUGCGCCUGGCCCAGCCCUUUCCCCGUCGGUGCCCCUGCACUACCUGCCCCACGAUCCGCUGCACCAGGAGCUGUCCUUUGGUGUGCCAUAUUCUGGAAUUCUCGGGUGCCAA`, “RBNS enrichment (R)” read 0.941.
`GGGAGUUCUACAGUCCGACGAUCGCCAAAGGUCAAUUUUACAGAAGAUGAGUUUAAAAAUGUUUGGACAUUUCUUGGAGGUGGCUGUGUGGGGAACGGCUUGCUUACAGGUACAGCAGGUACAACCGCCUGACUGGAAUUCUCGGGUGCCAA` — result for “RBNS enrichment (R)”: 0.785.
`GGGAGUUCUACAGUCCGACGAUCCACACACCCCUCCGGACAUCCAGCGUGACGGAGCCCACACUGCCACCUUGUGGCCGCCUGAGACCCUCGCGCCCCCCGCGCCCCUCUUUUUCCCCUUGAUGGAAAUUGACUGGAAUUCUCGGGUGCCAA` — result for “RBNS enrichment (R)”: 0.315.
`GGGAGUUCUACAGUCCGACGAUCCCGGGGCCUGCCAAGCUUUUCCAUACUUCCAGAUGAUGUUAUAAGGCAUUAAACAGCCACCAUCGCAUAGAACCUUCCCUGUAACCCAGACAUUGUCAAGGAAGAUAUACUGGAAUUCUCGGGUGCCAA`: “RBNS enrichment (R)” 0.668.
For `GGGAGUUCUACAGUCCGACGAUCGUGCCCGAGAGCUGCCUGGUGUCAGGUAGAGAGGACACUGUACCUGGGUGAAUGAUCAGACCCUGGUAGCUAAGAAGGAACUUGUCCCUUUGAGUCAGUGUGCAGACCCCUGGAAUUCUCGGGUGCCAA`, “RBNS enrichment (R)” read 1.45.
`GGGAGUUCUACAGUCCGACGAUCGCUGGGUAUGGUGGCACAUGCCUAUAGUCUCAGCUACUUGUGAGGCUGAGGCAGGAGGAUUCUUUGAGCCCAGGAGUUUGAGGUUACAGUGAGCCACAAUCACACCAAUCUGGAAUUCUCGGGUGCCAA` — result for “RBNS enrichment (R)”: 0.404.
Under “RBNS enrichment (R)”, `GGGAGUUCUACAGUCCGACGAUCAGGCGCCAUGAAUGCGGUUUCUCUGUGUAGCUCUGAGAGUUCGUUUCAUAGAACACAACACUUGAGCAGAUGCAUCCAAGGAGGCGAGCAAAUGAAAAGGAAUCUAUUUAUGGAAUUCUCGGGUGCCAA` is recorded as 0.631.

Single results of other studies
Starting sequence: viral docking peptide; KGVKRKLFAEDSS
For `S12P`, “normalised enrichment score” read 1.78 (CCND1, cyclin fold, Cln2 fusion (human); yeast growth competition, sequencing; yeast; strong parent motif; reference: not given, higher = stronger binding).

Excerpt of the above (study 2):
`CCGAGTCA` has an E-score of 0.076.
`ATGGCGCA` gave an E-score of 0.0333.
The E-score of `TATGCACA` is reported as -0.0518.
